Assay results from different studies.
Numbered parts are unrelated; each lists some results of a single study.

Set 1 — method: RNA Bind-n-Seq; form: RNA; medium: in vitro; tested at: not given; relative to: input RNA pool; direction: higher = stronger binding; endpoint: bound/input enrichment
Target: RING finger protein unkempt homolog, zinc fingers 1-6, GST-SBP tag (UNK, Homo sapiens, UniProt Q9C0B0, residues 30-357)
Chain of UniProt Q9C0B0 (30-357, looked up): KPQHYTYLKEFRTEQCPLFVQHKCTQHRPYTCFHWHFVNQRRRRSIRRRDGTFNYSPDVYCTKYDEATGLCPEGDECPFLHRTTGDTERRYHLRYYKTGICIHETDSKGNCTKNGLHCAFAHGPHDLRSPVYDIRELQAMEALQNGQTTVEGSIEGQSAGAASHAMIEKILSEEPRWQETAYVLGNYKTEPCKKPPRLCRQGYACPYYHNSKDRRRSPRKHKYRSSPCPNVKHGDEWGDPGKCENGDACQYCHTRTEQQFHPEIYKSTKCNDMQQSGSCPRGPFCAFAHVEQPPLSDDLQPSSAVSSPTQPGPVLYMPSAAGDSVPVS
Notes: RNA with constant flanks, human and mouse sites, ends assumed
Constant ends, left off below: GGGAGUUCUACAGUCCGACGAUC … CAACAGAGGAUUGAGCAUCA
GCUUCUCUUGCUUCUGAGGCAGUUGUGCGAGCCAGUUGGCUGCAGAGAGGGACUCUUAUCUCUUAAUGCUUUAAUACUCUCUGGCCUUGUUCCUCAUUGGCUCCCAGCUCUGCUUCUUUG: 0.169 ratio
AAAACUAUUCUACAGUGCAAAAAAUACCAGCGAACUCCUGUUUAAGAAAAAUAUCCUUGAUUUAGUAAAUGAAUUUCCUGAGAAGAUUGCAUGCAGUUUGCAUGUUACAAAACAGACUAC: 8.41 ratio
GAUUCAUUGCCUGCUUUACUGGAAUUCUACAAAAUACACUAUUUGGACACUACAACGUUGAUAGAACCAGUUUCCAGAUCCAGGCAGGGUAGUGGAGUGAUUCUCAGGCAGGAGGAGGCG: 0.42 ratio
AUGAAAAUGUUAUUUAAUCUUUGUCUCUGUAUUUUGAUACUUGAAUGACUUUCCCUUUUGUUUUACUGUAUAUAAAAUUGUUAAUCUGUCUGAUUUUGUCUGAAUUAUAAACACUUUGAG: 0.178 ratio
UUGUGCAGAGCCCAACAUGAGCUUCAUUUCCAAGCUGCCACCUAUCUCUGCCUCCUGCGUAGCAUCCGGAAACAUGUGGCCCUACAUCAGGAAUUUCAUGGCAAGGGAGAUACAACUCGU: 0.107 ratio
UUGUGGGGAUGAGGGUGGGAUGGGAAAGGGAUGUAUGGAUGUUAUUGGCAUUUUUAAGUGUUUAGAGUUUUUUGGGGUUUGGGGUGGUUUUUUUUCCUUGUUUUCCUUUUUUCCUUUUAA: 38.2 ratio
GCUGGAGACUGGAAGUGUCCUAAUCCUACAUGUGAGAACAUGAACUUCUCUUGGAGAAAUGAAUGCAACCAGUGUAAGGCACCUAAGCCAGAUGGCCCAGGAGGGGGACCAGGAGGCUCU: 0.123 ratio
UCCCUCUGGGUCAUAAAUAGUGCGCUCAGAAUAAAAAUUCUUUGUGCAACCUAUGUAAAUGUAAAUAUUCGAGACAUUGAUAAGAUCUAUGUUCGAACAGGUAUCUACCAUGGAGGAGAA: 0.238 ratio
GUCAAGGCCAAAACACUAAGAAAACUGAUCCAACAAACAUUUAGACAAUUUGCCAACCUUAAUAGAGAAGAAAGUAUUCUGAAAUUCUUUGAGAUCCUGUCUCCAGUCUACAGAUUUGAU: 5.58 ratio
UUGUGUAGAGCCCAACACGAACUUCACUUCCAAGCUGCCACCUAUCUCUGCCUUUUGAGUAGCAUCCGGCAACAUGUAGCCCUUCAUCAGGAAUUUCAUGGCAAGGGUGAGCGUUCAGUG: 0.207 ratio
UGCCUGCCUUCAAUCCUGGCCAAGUUGGAGUAGACUGGUAUGAGAAAACUAUGAUUAGUUCACAUUUACUGGUGCAUCCUUGAUCCUCUCACAGAUAGAGGUCUUAAAGGUUGGAUCAUG: 0.356 ratio

Set 2 — method: protein binding microarray; form: double-stranded DNA, one strand shown; medium: in vitro; tested at: not given; relative to: not given; direction: higher = stronger binding; endpoint: E-score
Target: Histone acetyltransferase KAT6A, winged helix 2, GST fusion (KAT6A, Homo sapiens, UniProt Q92794, residues 85-181)
Notes: 8-mer, flanks averaged, mean of 2 arrays, mostly near background
Residues (chain): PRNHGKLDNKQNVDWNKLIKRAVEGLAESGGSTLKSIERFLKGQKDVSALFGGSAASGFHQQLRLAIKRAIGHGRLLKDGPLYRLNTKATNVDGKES
ACCATCCA: -0.047
AGAAGTAG: -0.0944
GCGTCTCC: 0.093
GGGGATCA: -0.141
CCCGGAGC: 0.277
CCAAAAGG: 0.0966
GTCACGAA: -0.0676
TAGTTAAA: 0.108
CATGGGCA: -0.0285
AGTTTCGC: -0.0254
CGTATGGA: -0.111
CTGATCAC: -0.0378
CCGCGTCA: -0.0598
AATAGATC: -0.0325
ATACCCGC: 0.108
CCTGGGAG: -0.0356
CAACAGCA: 0.0826
CCAAAACC: 0.0871
CACAGCCG: 0.157
AACGTGGC: -0.0582
AACGTCGG: -0.0855
ACCACATC: -0.0399
ACTTAAGA: -0.013
TAATTGCA: 0.116
CGGAGATC: -0.023

Set 3 — method: RNA Bind-n-Seq; form: RNA; medium: in vitro; tested at: 365 nM; relative to: no-protein control; direction: higher = stronger binding; endpoint: RBNS enrichment (R)
Target: RNA binding protein fox-1 homolog 2, RRM domain, GST-SBP tag (RBFOX2, Homo sapiens, UniProt O43251-10, residues 100-194)
Notes: natural RNA segment, single round, ends assumed
Constant ends, left off below: GGGAGUUCUACAGUCCGACGAUC … UGGAAUUCUCGGGUGCCAA
Construct (chain): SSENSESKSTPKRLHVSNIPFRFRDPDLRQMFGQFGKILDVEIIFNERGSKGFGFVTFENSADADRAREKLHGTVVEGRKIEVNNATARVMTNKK
UAGUGAUUGCAUCAAUUAUAACAUUUAUCAUUAGCAGUUGAGAGCACAUGUUCAUAUAGCAAUGUAAAAACCUACUAAUGAGUAUUUGGUAAUUUCCCAUUAGCAUAAUU: 1.02
UUUGUACUUGCUUCCUCUCGACGCCUGCCACAACAGUUUUGCCAGUCACCAAACUCAGAAAAAACUAGCUGUGUGAGCAGCACCGUACCCUAGCGGUCUUCAGACAUUAA: 0.285
ACAAACUUCACUCAUCAUUUGAAUACAGUAUUUACAGAGGAUGUUUGAGUUGAGAGCUUUUUUAGGUUUGAGGGGCUUGAUUUUUUUGUAAAUAAAAUUAUGCUUUGUGG: 0.571
CAGGGUCUGUCUUUUUCACCUUUGUACCUUUCAUGGCAUCUAGCAUAGUGCUUUGCACAUAGUCGUCACUCAGUGUUUGUUAAUAAAGCUACUAGUGUCAUUAAAACUCU: 0.705
UAUGCACCUUAUCUGCCUGUUGUGGGUUUCUUAAACUUGCACUUCCUACCCACCCAAAGAUAGAUAUCCUUUAAAGAAAAUAAAGGCAGAGAAUUAAAACUGGGGAGCCA: 1.34
CCAUCUGUGUCCAGCGGCCCCGGCUCCAGCCCAGCCAGCACUCUGCAGGGUCACACGCACCGUGUCCCCACCCAGGACAGCAGACACCCGCCAGAGUGUGCGCGCCCAGU: 0.351
UAAGAAUUUAUAGACGCACUUCCUUACAAAGCUAAGCGUUCAGAGCCAUGGGCUACAGGCCACACCUUAAGAGGACUGUUUACGCAAUAGUGUCCCCUACCCUGUAUAUA: 0.349
CUCCCUGGGGCCCCAGGAUCCACCUAACUGGCCUGGCACCUGGUGCCACGUGCUGCUGCCGCCAGGAUAUGCGCCUUCCCACAGGUGCCCUGCCUGAGUUGUGUGCAUCC: 0.304
UGUCCCUGUGCCUAACACCAGCGUUUGAGGGGCUGGCCUUCCUGCCCUACAGAGGUCUCUGCCGGCUCUUUCCUUGCUCAACCAUGGCUGAAGGAAACCAGUGCAACAGC: 0.19
AUUUUUUACUUUUAUAGAUUUUAAAACUAUGAUCCUUUAUAUGUGUGUUUUGGGGGAGCUAUGAUAAGUUUUAUGGCAAACGGUUGGUAUUGUUAACUUUUUAUUGUCAU: 1.32
CUAGGAGGUUGGCACUAAGACCCAGGACAAUGUUACUUCUCUGUGAUGUGUGGUGACUUCCCUCUGCUGGCUUAUGCAGUGAUGGUGAAUGAACCAGUCAGUGGAAAACU: 0.699
AGAGAGGUUCCCCACCCCUGUAACUCCUCACUGUACUGAUUUACUGGCGCAUGAAAUUCUAUUAAAAAUGCAUUCUUCUGAAUAAAAAGAGUAUUCACUAUUUAACUUCA: 1.06

Set 4 — method: RNA Bind-n-Seq; form: RNA; medium: in vitro; tested at: 200 nM; notes: whole 134-nt RNA, ends assumed; added: 150 mM KCl; relative to: input library; direction: higher = stronger binding; endpoint: log2 enrichment
Target: Ras GTPase-activating protein-binding protein 1, full length (G3BP1, Homo sapiens, UniProt Q13283)
Chain of UniProt Q13283 (whole entry, looked up): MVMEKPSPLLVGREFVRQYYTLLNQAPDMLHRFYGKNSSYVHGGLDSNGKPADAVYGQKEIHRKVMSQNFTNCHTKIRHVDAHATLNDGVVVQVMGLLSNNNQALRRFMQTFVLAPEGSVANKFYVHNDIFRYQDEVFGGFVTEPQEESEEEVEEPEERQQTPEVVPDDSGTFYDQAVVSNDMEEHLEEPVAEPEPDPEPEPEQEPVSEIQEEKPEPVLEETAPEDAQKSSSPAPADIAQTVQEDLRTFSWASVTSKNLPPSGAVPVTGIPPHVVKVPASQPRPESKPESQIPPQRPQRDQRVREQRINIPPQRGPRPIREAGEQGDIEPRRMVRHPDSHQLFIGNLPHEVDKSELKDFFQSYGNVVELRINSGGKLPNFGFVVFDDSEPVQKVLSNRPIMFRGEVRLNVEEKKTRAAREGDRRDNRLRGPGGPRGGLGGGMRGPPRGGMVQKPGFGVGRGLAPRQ
Constant ends, left off below: GGGAGUUCUACAGUCCGACGAUC … UGGAAUUCUCGGGUGUCAAGG
CAAGUCCUGUGCUACACAUCGUAUGUACCGAAUCGGCCCGGGCCCGGGGCCCGGGAAAGUAUUAUGUUACGCCGUUCGGAUCUGCACUUC: -1.06
AUGCACUUGACAUAGUAGCAAAUUGGUUCUGAAUUAUGCAACUGUUUGCUAUUUAGUAAACUAGCAAAUGAUGCAUGUAUUUUGUUUUUC: -2.09
UCCUGUGCUACACAUCGUAUGUACCGAAUCGGUUUUUUGGUUUUUUGGGGUUUUUUGGGAAAGUAUUAUGUUACGCCGUUCGGAUCUGCA: -0.635
UGUGCUACACAUCGUAUGUACCGAAUCGGGGUUUUUGGGGUUUUUUUGGGGAAAAAAAGGGGAAAGUAUUAUGUUACGCCGUUCGGAUCU: -0.295
GUCCUGUGCUACACAUCGUAUGUACCGAAUCGGGAAAGGGUUUUUGGGAAAAAAAGGGAAAGUAUUAUGUUACGCCGUUCGGAUCUGCAC: -0.462
GUCCUGUGCUACACAUCGUAUGUACCGAAUCGGGGAAAAGGGGAAAAGGGAAAAGGGGAAAGUAUUAUGUUACGCCGUUCGGAUCUGCAC: 0.283
CACAGACAACACGCACCCACACAGACACAGAGGGAAGGGGUUGGGAUGGGGACAGGGUGCACAGCAGGGCGGGGUAGGACCCCAAAACCU: 1.89
UCCUCAAGUCCUGUGCUACACAUCGUAUGUACCGAAUCGGAGGGAGGGAGGGAAAGUAUUAUGUUACGCCGUUCGGAUCUGCACUUCCAG: 1.46
AAGUCCUGUGCUACACAUCGUAUGUACCGAAUCGGGGAGGGGAAAGGGGUUUGGGGAAAGUAUUAUGUUACGCCGUUCGGAUCUGCACUU: 0.872
CCUCAAGUCCUGUGCUACACAUCGUAUGUACCGAAUCGGGAGGGUGGGUGGGAAAGUAUUAUGUUACGCCGUUCGGAUCUGCACUUCCAG: 1.93
UGGGAGGUGGAUUUUGUUUAUUUUUCUAGCUCAUUUCCAGGGGUGGGAAUUUUUUUUUAAUAUGUGUCAUGAAUAAAGUUGUUUUUGAAA: 0.186
AAGUCCUGUGCUACACAUCGUAUGUACCGAAUCGGGUUUUUUUGGGAGGGUUUGGGAAAGUAUUAUGUUACGCCGUUCGGAUCUGCACUU: -0.135
UCAAGUCCUGUGCUACACAUCGUAUGUACCGAAUCGGUUUGGAGGUUUUUUUGGAAAGUAUUAUGUUACGCCGUUCGGAUCUGCACUUCC: -0.567
CCUGUGCUACACAUCGUAUGUACCGAAUCGGGGUUUUUUUGGUUUUUUUGGUUUUUUUGGGAAAGUAUUAUGUUACGCCGUUCGGAUCUG: -0.953
